# Published values collected from several papers.
# Numbered parts are unrelated; each lists some results of a single study. Changes are numbered by the printed parent chain.

# Study 1
# Target: CCNB2, cyclin fold, Cln2 fusion (human)
# Technique: yeast growth competition, sequencing
# Matrix: yeast
# Notes: strong parent motif
# Relative to: not given
# Reading: higher = stronger binding
# Parent: BRCA2 docking peptide (human); PSIKRNLLNEFDR; partner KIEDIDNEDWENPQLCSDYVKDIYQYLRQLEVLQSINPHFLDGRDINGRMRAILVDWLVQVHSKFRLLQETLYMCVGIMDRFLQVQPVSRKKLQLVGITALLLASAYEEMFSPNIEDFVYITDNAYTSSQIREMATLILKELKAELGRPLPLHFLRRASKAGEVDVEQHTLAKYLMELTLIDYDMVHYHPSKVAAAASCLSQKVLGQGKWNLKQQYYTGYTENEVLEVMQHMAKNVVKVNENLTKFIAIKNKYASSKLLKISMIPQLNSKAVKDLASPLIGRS
Variant,normalised enrichment score
PSIKRNLLNEFLR [D12L],1.94
PSIKRNLLNERDR [F11R],0.56
PSIGRNLLNEFDR [K4G],0.476
PSIKRNLGNEFDR [L8G],0.901
PSIKRNLLNIFDR [E10I],0.49
PSIKRNLVNEFDR [L8V],2.36
PLIKRNLLNEFDR [S2L],3.24
PSIKRNLLFEFDR [N9F],3.12

# Study 2
# Molecule: PhoQ, residues 284 288 289 292 302 303 AMDMFI
# Technique: Sort-seq
# Measured: YFP reporter
# Matrix: E. coli
# Notes: PhoQ-PhoP variant library
# With: 10 µM Mg2+
# Relative to: high Mg2+ state
# Reading: higher = stronger signaling
target,fold induction
"PhoP, residues 12 14 15 18 19 TQCLL (Escherichia coli, UniProt P23836)",0.527
"PhoP, residues 12 14 15 18 19 VHTVL (Escherichia coli, UniProt P23836)",1.1
"PhoP, residues 12 14 15 18 19 ICWRQ (Escherichia coli, UniProt P23836)",0.142

# Study 3
# Target: Interferon regulatory factor 7, full length, phosphomimetic (IRF7, Homo sapiens, UniProt Q92985, residues 1-503, S471D/S472D/S475D/S476D/S477D/S483D/S484D/S487D)
# Technique: protein-binding microarray
# Form: double-stranded DNA, one strand shown
# Matrix: in vitro
# Concentration: 2200 nM top
# Notes: 60-bp whole probe
# With: salmon DNA 0.4 mg/ml
# Relative to: random background probes
# Reading: higher = stronger binding
# Constant ends, left off below: GCCTAGCAC … GTCTTGATTCGCTTGACGCTGCTG
# Target sequence (chain): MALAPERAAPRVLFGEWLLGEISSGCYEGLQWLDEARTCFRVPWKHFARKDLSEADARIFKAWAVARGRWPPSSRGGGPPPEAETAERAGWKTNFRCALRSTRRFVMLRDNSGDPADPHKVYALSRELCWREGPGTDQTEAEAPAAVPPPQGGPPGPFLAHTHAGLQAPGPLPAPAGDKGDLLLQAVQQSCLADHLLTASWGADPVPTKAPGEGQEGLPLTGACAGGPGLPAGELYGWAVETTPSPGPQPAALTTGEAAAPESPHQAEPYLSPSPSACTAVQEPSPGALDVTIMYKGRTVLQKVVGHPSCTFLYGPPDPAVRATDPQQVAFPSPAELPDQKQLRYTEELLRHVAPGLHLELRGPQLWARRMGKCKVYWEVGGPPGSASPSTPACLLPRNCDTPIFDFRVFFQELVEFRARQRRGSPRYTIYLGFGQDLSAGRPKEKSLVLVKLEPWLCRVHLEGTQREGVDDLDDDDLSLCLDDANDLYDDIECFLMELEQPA
Oligonucleotide,fitted relative affinity
GAGGGTCTCCTTCTCCTGACGTGCTAG,0.247 z-score
GTGTTATTAAAACTTCATGAAGTGCTA,0.0473 z-score
TCATTTTTTGGTTTCTGACTGTGCTAG,4.08 z-score
GGCGGTTTCCTACTGCTGACGTGCTAG,1.05 z-score
TCATTTTTCAAGAAACAGACTGTGCTA,0.236 z-score
TTAGTTCTCAGTATCGATTAGTGCTAG,0.995 z-score
TCACATTTAATTATATGACTGTGCTAG,0.511 z-score
GACGATCTCAGTCTCGAAACGTGCTAG,0.505 z-score
TTAGATTCCAGCTTCGATTAGTGCTAG,0.901 z-score
GACGGCTTCCTACTGCTGACGTGCTAG,0.576 z-score

# Study 4
# Target: RNA binding protein fox-1 homolog 2, RRM domain, GST-SBP tag (RBFOX2, Homo sapiens, UniProt O43251-10, residues 100-194)
# Technique: RNA Bind-n-Seq
# Form: RNA
# Matrix: in vitro
# Concentration: 365 nM
# Notes: natural RNA segment, single round, ends assumed
# Relative to: no-protein control
# Reading: higher = stronger binding
# Constant ends, left off below: GGGAGUUCUACAGUCCGACGAUC … UGGAAUUCUCGGGUGCCAA
# Residues (chain): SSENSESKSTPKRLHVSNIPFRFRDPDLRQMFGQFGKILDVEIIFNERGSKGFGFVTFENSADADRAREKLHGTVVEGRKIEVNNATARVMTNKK
Oligonucleotide,RBNS enrichment (R)
AAAUUAGAAUCAGCAGCACUGUACAAAUAAAGUGCCUGUGCUUCACCUCACACCAAGAAUCUUGCCUAACCCUGUCAGAGUGCCUAAUAUCCUGUGGUGAUUAUGUAUAA,0.416
GAUAAUUCCUUCUAUGCGCAGUUUAGACAUCUCUGUUGGGCUUUUUUUUUAAAUUUUUAUUUUAAAAGGCACAAAACUAUAGAUAUUAGUUGAAUGUUGAGGCUUUAACU,0.569
AACUCACCUGUCAUGCUGUUCCCAGGAGGGACAGCUUGGUAGGAACUUUCUGGGGUUUGACUGUUACACUAGACAUGGAUUUCUAAGCUUUAAGUGUGGUUGGUUUAGGA,0.436
UACAGUCAUAAAGCCACCUAGAGCGAUUUGUUGUUGAGCAACGCCGCCCCUUCCCUCCAGGAUCAGAAGCAGCACCCACCCUUGCCAUGAUAAACAUUCCAUCCCCUGCU,0.544
GAGAUAGGAAGGUCAUUUCCAUGUAUGCAUAAUAAUCCUGCAAAGUACAGGUACUUUGUCUAAGAAACAUUGGAAGCAGGUUAAAUGUUUUGUAAACUUUGAAAUAUAUG,0.729
AAGGAAUACAGCUAAAUAAACCAAGGGGGCUAGGCCCAGUCAGCCAUUGUACAGAGGCCCAGAUUUCUGUAUGUGUCGUGGUCAAUGGCUGGGUUGACAGAGUGGUCUGC,0.479
AGCUGAGCCGAAUGGAGACAGCUGAGCUGAGGCCUGACUUUUUCAAUAAAACAUUGUGUAGUUCUGGCCUCCUGCUGCCCCGGCUCUGUUUCCCCUGGCGCCAAGAGAAG,0.195
AAGCUCUUGGCUUGGAGUCCCGUGUCGUCUCCACCCAGAGGAAGUUCUCCAGAGUUCACCUUUCCCUUUUCCUUGAGUUGUGCUGAAUGCCCCACCCCAGCUCUCUUUCC,1.12
GAGCCAGGGAGCCGAAGCAGUGCUUCAGGGGGUACUGUCACUAAGCCCUCAAGAUACCCUUGUCCCUGAAGUAGGGACUAACUAUAGCACAAGAUAGUAUGUGCCAAUAU,0.364
UCCUGUCAUUUUCAUGUGGCUUGAGCUCUGAGACGUGCGGAUGAGGCUGGACAACUACUACCCAUACAAUUAGGGGGUCAAAAUAACUUUAAAUAAAUAGCAUCGGACUU,0.685

# Some of these lines once more (study 4):
Oligonucleotide,RBNS enrichment (R)
AAAUUAGAAUCAGCAGCACUGUACAAAUAAAGUGCCUGUGCUUCACCUCACACCAAGAAUCUUGCCUAACCCUGUCAGAGUGCCUAAUAUCCUGUGGUGAUUAUGUAUAA,0.416
GAUAAUUCCUUCUAUGCGCAGUUUAGACAUCUCUGUUGGGCUUUUUUUUUAAAUUUUUAUUUUAAAAGGCACAAAACUAUAGAUAUUAGUUGAAUGUUGAGGCUUUAACU,0.569
AACUCACCUGUCAUGCUGUUCCCAGGAGGGACAGCUUGGUAGGAACUUUCUGGGGUUUGACUGUUACACUAGACAUGGAUUUCUAAGCUUUAAGUGUGGUUGGUUUAGGA,0.436
UACAGUCAUAAAGCCACCUAGAGCGAUUUGUUGUUGAGCAACGCCGCCCCUUCCCUCCAGGAUCAGAAGCAGCACCCACCCUUGCCAUGAUAAACAUUCCAUCCCCUGCU,0.544
